# Literature values, collected from citations in different studies.
# Values joined by “and” are separate records of one study, mostly repeats; a detail may differ.
SMILES,system,setting,scale,quantity,value
COc1ccc2c3c1O[C@H]1[C@@H](O)CC[C@H]4[C@@H](C2)N(C)CC[C@@]341,,,,logP,1.16
COC(=O)C(c1ccccc1)C1CCCCN1 (stereo not shown),"human, plasma","concentration not given, range of reported values",,Cmax,0.01 to 176 µM
CCCCCc1cc(O)c2c(c1)OC(C)(C)[C@@H]1CCC(C)=C[C@@H]21,"human, plasma","dose not given, therapeutic dronabinol dosing",,Tmax,1.5 h
Cc1ncc2n1-c1ccc(Cl)cc1C(c1ccccc1F)=NC2,human,dose not given,,volume of distribution,1 to 2 L/kg
COC[C@@H](NC(C)=O)C(=O)NCc1ccccc1,"human, plasma",oral,,therapeutic plasma concentration range,2 to 5 µg/mL
CC(C)N(CCC(C(N)=O)(c1ccccc1)c1ccccn1)C(C)C (stereo not shown),human,,,free Cmax,0.742 µM
COC(=O)C(c1ccccc1)C1CCCCN1 (stereo not shown),mouse,,,fraction unbound,0.12
C=C1C[C@@H]2[C@H](CC[C@]3(C)C(=O)CC[C@@H]23)[C@@]2(C)C=CC(=O)C=C12,"patients, urine",dose not given,,unchanged fraction,< 1%
Cc1ncc2n1-c1ccc(Cl)cc1C(c1ccccc1F)=NC2,human,clinical,,fraction absorbed,0.9
O=c1[nH]c2ccccc2n1CCCN1CCC(n2c(=O)[nH]c3cc(Cl)ccc32)CC1,"human, plasma","concentration not given, range of reported values",,Cmax,0.033 to 117 µM
COc1ccc2c(c1)[C@]13CCCC[C@@H]1[C@H](C2)N(C)CC3,human,,,plasma clearance,0.888 L/h/kg
CN[C@@]1(c2ccccc2Cl)CCCCC1=O,mouse,"dose not given, together with: 1-ABT and ticlopidine",baseline: without CYP inhibitors,AUC(0-3h),increased
c1ccc2c(c1)Cc1ccccc1-2,"zebrafish embryos, whole embryo","192.8 ng/well, 48 hpf, single exposure",,amount in tissue,2.65 ng/well and 2.9 ng/well and 2.6 ng/well
Cc1ncc2n1-c1ccc(Cl)cc1C(c1ccccc1F)=NC2,human,average of reported values,,blood-to-plasma ratio,0.57
O=C(O)[C@@H](c1ccccc1)[C@@H]1CCCCN1,"human, CES1 wild type, plasma","oral, 10 mg methylphenidate, single dose, median",,Tmax,2.3 h
CCCC(C(=O)c1ccc2c(c1)OCO2)N1CCCC1.Cl (racemic),"female Sprague-Dawley rat, brain","intraperitoneal, 3 mg/kg, 30 min",,brain concentration,863 ng/g
CCCC(C)(COC(N)=O)COC(=O)NC(C)C (stereo not shown),mouse,,,fraction unbound,0.31
CC(C)N(CCC(C(N)=O)(c1ccccc1)c1ccccn1)C(C)C (stereo not shown),"human, blood",,,blood-to-plasma ratio,1.2 ¹⁶
NC(=O)c1ccc2c(c1O)[C@]13CCN(CC4CC4)[C@H](C2)[C@]1(O)CCC(=O)C3,human,"oral, 5 mg, day 1",,Tmax,2 h
Cc1ncc2n1-c1ccc(Cl)cc1C(c1ccccc1F)=NC2,plasma,"concentration not given, total, steady state",,Cmax,0.34 µM
C#CCN(C)[C@H](C)Cc1ccccc1,mouse,,,fraction unbound,0.045
CC(C(=O)O)c1ccc(-c2ccccc2)c(F)c1 (stereo not shown),human,,,clearance,1.6 L/h
O=C(O)CCCO,rat,,,LD50,1750 mg/kg
COC(=O)[C@H](c1ccccc1)[C@H]1CCCCN1,"human, by CES1 genotype, plasma","oral, 10 mg methylphenidate, single dose, median",,Tmax,1.8 h
Cc1ncc2n1-c1ccc(Cl)cc1C(c1ccccc1F)=NC2,human,,,oral bioavailability,30 to 40%

# Excerpt of the above:
SMILES,system,setting,scale,quantity,value
Cc1ncc2n1-c1ccc(Cl)cc1C(c1ccccc1F)=NC2,human,clinical,,fraction absorbed,0.9
O=c1[nH]c2ccccc2n1CCCN1CCC(n2c(=O)[nH]c3cc(Cl)ccc32)CC1,"human, plasma","concentration not given, range of reported values",,Cmax,0.033 to 117 µM
COc1ccc2c(c1)[C@]13CCCC[C@@H]1[C@H](C2)N(C)CC3,human,,,plasma clearance,0.888 L/h/kg
